Measured values of several laboratories.
Protocols differ between the studies behind these lines. ± gives the spread as reported.
STING1 H232R: Stimulator of interferon genes protein (STING1, Homo sapiens, UniProt Q86WV6, H232R)
Sequence of UniProt Q86WV6 (whole entry, unmodified, looked up): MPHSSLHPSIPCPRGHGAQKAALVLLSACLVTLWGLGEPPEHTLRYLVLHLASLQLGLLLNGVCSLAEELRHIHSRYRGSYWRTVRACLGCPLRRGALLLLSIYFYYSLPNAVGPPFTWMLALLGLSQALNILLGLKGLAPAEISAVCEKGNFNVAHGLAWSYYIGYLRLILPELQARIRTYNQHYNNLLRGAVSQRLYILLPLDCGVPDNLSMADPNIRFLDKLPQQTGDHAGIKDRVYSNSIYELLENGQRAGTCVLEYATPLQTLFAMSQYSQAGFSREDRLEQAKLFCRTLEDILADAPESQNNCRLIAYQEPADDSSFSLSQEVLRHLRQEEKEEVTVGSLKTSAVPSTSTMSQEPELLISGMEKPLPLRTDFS
Sequence of UniProt P18089 (whole entry, looked up): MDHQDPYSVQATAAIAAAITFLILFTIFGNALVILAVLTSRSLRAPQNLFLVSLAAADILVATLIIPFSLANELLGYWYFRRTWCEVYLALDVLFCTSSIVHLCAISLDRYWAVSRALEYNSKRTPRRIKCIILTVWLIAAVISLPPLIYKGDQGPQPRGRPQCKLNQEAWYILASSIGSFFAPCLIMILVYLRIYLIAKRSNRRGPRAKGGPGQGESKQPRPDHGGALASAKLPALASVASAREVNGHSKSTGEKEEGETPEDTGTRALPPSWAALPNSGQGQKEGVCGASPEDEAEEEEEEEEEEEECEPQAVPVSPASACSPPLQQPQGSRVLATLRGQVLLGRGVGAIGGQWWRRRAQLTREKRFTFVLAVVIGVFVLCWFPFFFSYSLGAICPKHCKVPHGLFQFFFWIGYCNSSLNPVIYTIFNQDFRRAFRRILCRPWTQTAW
Sequence of UniProt Q9SZU7 (whole entry, unmodified, looked up): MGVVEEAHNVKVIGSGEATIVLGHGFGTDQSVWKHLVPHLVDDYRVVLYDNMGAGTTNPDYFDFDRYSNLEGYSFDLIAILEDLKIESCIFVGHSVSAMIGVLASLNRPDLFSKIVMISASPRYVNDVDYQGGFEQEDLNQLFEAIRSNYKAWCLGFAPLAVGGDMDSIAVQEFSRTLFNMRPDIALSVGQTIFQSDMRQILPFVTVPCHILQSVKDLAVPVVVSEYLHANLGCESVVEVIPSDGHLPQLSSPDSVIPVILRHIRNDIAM
Sequence of UniProt P09914 (whole entry, looked up): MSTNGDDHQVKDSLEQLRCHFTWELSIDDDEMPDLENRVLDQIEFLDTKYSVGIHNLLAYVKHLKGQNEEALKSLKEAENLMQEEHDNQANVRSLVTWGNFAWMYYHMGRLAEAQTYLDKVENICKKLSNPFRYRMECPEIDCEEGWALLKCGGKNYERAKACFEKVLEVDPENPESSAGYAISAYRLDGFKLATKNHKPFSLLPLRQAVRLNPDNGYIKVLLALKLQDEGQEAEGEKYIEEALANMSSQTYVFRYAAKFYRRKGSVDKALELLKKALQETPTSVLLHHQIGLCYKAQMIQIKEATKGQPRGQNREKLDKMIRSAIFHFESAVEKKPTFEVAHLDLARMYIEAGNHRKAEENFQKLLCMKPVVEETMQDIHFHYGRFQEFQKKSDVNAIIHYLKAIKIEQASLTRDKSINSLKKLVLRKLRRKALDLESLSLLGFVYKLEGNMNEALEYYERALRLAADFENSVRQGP
Sequence of UniProt P80192 (whole entry, looked up): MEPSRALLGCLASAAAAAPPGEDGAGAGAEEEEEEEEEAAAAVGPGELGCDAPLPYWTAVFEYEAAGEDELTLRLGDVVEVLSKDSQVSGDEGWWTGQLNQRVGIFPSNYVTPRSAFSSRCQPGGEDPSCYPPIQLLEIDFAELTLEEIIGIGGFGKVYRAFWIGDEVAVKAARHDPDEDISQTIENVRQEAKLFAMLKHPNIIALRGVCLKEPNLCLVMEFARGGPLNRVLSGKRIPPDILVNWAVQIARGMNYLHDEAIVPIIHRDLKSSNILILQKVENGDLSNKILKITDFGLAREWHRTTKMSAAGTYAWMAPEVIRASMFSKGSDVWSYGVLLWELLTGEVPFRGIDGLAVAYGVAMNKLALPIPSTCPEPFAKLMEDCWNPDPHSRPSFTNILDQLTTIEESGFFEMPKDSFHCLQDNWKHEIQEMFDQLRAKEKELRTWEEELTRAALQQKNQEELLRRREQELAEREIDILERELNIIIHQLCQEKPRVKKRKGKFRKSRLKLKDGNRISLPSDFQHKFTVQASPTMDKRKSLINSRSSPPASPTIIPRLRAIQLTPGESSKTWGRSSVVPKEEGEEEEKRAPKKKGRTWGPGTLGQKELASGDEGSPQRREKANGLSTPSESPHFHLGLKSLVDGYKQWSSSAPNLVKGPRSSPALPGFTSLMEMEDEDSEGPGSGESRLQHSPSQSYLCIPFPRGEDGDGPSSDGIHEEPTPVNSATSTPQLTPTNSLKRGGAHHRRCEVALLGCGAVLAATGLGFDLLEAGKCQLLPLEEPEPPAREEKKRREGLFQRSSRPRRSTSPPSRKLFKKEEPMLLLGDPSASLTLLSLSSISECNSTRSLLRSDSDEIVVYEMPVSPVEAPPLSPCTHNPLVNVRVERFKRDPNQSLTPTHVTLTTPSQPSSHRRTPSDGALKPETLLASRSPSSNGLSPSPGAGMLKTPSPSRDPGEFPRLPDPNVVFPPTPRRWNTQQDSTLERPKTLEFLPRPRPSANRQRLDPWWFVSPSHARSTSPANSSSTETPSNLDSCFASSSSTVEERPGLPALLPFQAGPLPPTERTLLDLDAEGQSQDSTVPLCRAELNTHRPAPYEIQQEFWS

Compound | target | assay | test system | conditions | quantity | result
O=C1c2ccc3c4ccc5c6c(ccc(c7ccc(c2c37)C(=O)N1CCN1CCCCC1)c64)C(=O)N(CCN1CCCCC1)C5=O | human telomeric G-quadruplex DNA | binding, thiazole orange displacement | – | pH 6 | DC50 | 570 ± 120 nM
Cc1cccc2c1N(C(=O)n1ccnn1)CC2 | KAI2 (Arabidopsis thaliana, UniProt Q9SZU7, I193A) | ITC | – | I193A mutant, mean | Kd | 38900 nM
O=C(O)C(Cc1c[nH]cn1)N1C(=O)c2ccc3c4ccc5c6c(ccc(c7ccc(c2c37)C1=O)c64)C(=O)N(C(Cc1c[nH]cn1)C(=O)O)C5=O (stereo not drawn) | human telomeric G-quadruplex DNA | binding, thiazole orange displacement | – | pH 8 | DC50 | > 2500 nM
O=C(N[C@@H](CCNC(=O)c1ccc([N+](=O)[O-])o1)c1nc2ccccc2[nH]1)c1ccc(-n2cnnn2)cc1 | STING1 H232R | reporter gene, inhibitor | THP1-Dual KI-hSTING-R232 | 24 h, 1 h preincubation, together with: diABZI 500 nM | EC50 | > 40000 nM
Cn1ccc2c(N3CCN(CCCCOc4ccc5c(c4)NC(=O)CC5)CC3)cccc21 | ADRA2B (Homo sapiens, UniProt P18089) | ligand displacement, radioligand | – | – | Ki | 1680 nM
O=C(C#Cc1ccccc1)N[C@@H](CCNC(=O)c1ccc([N+](=O)[O-])o1)c1nc2ccccc2[nH]1 | STING1 H232R | reporter gene, inhibitor | THP1-Dual KI-hSTING-R232 | 24 h, 1 h preincubation, together with: diABZI 500 nM | EC50 | 8700 nM
CO[C@@H]1[C@H](OP(=O)(O)OC[C@H]2O[C@@H](n3cnc4c(=O)[nH]c(N)nc43)[C@H](O)[C@@H]2O)[C@@H](COP(=O)(O)OP(=O)([O-])OP(=O)(O)OC[C@H]2O[C@@H](n3c[n+](C)c4c(O)nc(N)nc43)[C@H](O)[C@@H]2O)O[C@H]1n1cnc2c(N)ncnc21 | Antiviral innate immune response effector IFIT1 (IFIT1, Homo sapiens, UniProt P09914) | microscale thermophoresis | – | pH 7.5, together with: structured cap I RNA, 35 nt | Kd | 34 nM
Cc1nn(-c2cccc(N)c2)c(=O)c2cnc(Nc3ccc(N4CCNCC4)cc3)nc12 | MAP3K9 (Homo sapiens, UniProt P80192) | enzyme activity, inhibitor | – | – | IC50 | 1370 nM
O=C(N[C@@H](CCNC(=O)c1ccc([N+](=O)[O-])o1)c1nc2ccccc2[nH]1)c1ccc(-c2ccccc2)o1 | STING1 H232R | reporter gene, inhibitor | THP1-Dual KI-hSTING-R232 | 24 h, 1 h preincubation, together with: diABZI 500 nM | EC50 | 19200 nM

Excerpt of the above:
Compound | target | assay | test system | conditions | quantity | result
O=C1c2ccc3c4ccc5c6c(ccc(c7ccc(c2c37)C(=O)N1CCN1CCCCC1)c64)C(=O)N(CCN1CCCCC1)C5=O | human telomeric G-quadruplex DNA | binding, thiazole orange displacement | – | pH 6 | DC50 | 570 ± 120 nM
